Experimental data gathered from unrelated publications.
Lines come from different studies, so protocols differ. Numbers after ± are the reported error.
Sequence of UniProt P28336 (whole entry, looked up): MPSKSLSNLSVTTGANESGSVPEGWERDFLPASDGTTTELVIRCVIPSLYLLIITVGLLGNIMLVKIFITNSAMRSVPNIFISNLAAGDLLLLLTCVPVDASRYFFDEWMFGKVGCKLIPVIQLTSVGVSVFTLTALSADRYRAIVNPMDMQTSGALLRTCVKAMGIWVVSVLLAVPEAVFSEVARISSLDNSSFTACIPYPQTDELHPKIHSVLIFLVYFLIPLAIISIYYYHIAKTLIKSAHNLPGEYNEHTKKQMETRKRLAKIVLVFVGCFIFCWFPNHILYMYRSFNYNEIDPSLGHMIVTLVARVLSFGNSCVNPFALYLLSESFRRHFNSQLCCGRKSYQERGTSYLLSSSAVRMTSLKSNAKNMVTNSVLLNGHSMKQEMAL

SMILES	target or system	test	system	setting	how to read	endpoint	result
c1ccc2cc3c(cc2c1)-c1cccc2cccc-3c12			fresh water	12 (unit not given), 20 °C, S30-2 sampler, 30 µm		log K(PDMS-water)	5.26 ± 0.03
O=S(=O)(Nc1ccccc1)c1ccc(NC(=S)Nc2ccccc2)cc1			mouse, male, blood	oral, 5 mg/kg daily, 14 days		mean platelet volume	4.68 fL
CCc1ccc(CC/C=C/c2ccc3c(c2)C(=O)CC3)cc1			Sprague-Dawley rat, female	oral, 450 mg/kg/day, 14 days		Mononuclear percentage	2.73%
COc1ncnn2ccc(-c3cnc4nc(C)n(Cc5nnc([C@@H](C)F)o5)c4c3)c12			human patients	oral, dose not given, grade 1 adverse drug reaction		incidence of Fatigue	7.1%
Cc1cccc(Cn2nc(C3CC3)c3c(NC(=O)c4cnc5cc(OCCN6CCN(C)CC6)ccn45)cccc32)n1		CTCAE v4.03, measured: blood alkaline phosphatase increased	patients with advanced solid tumours	oral, 400 mg, dose escalation, together with: pembrolizumab 2 mg/kg IV every 3 weeks		all-cause adverse events	42.9%
Cc1cc(C)c(CNC(=O)c2cc(Cl)c3c(c2C)O[C@@](C)([C@H]2CC[C@H](N(C)C)CC2)O3)c(=O)[nH]1			relapsed/refractory NHL patients	dose not given, trial, safety set, all TEAEs grade 5		incidence of tumour lysis syndrome	0%
O=C(O)CCCOc1ccc(F)cc1-c1cc(-c2ccccc2C(F)(F)F)n(-c2ccccc2)n1		measured: Neutrophils	Crl:CD(SD) rats, female, blood	iv, 25 µg/kg, 1 day		leukocyte differential	15.3 ± 3.9%
O=[N+]([O-])c1ccc2c(c1)S(=O)(=O)C=C2		flow cytometry	male C57BL/6 mice, spleen	i.p., 10 mg/kg, 8 days	relative to: splenocytes	CD45+ cells	81%
CCNC(=O)N1CCN(CCCC(c2ccc(F)cc2)c2ccc(F)cc2)CC1	Plasmodium falciparum		GB4			IC50	1 µM
C[C@H]1CN(c2n[nH]c3nc(N[C@H]4CC[C@H](NS(=O)(=O)CCC(F)(F)F)CC4)ncc23)CCO1	Putative ribosomal protein uL10-like (RPLP0P6, Homo sapiens, UniProt Q8NHW5)	competitor, Kinobeads competition, measured: RPLP0-like	human cell extract	20 µM	relative to: vehicle	relative abundance	1.09
CCN1[C@@H](C(=O)NC23CCC(C(=O)O)(CC2)CC3)[C@H](c2cccc(Cl)c2F)[C@]2(C(=O)Nc3cc(Cl)ccc32)C12CCCCC2			patients with advanced solid tumours	oral, 200 mg		grade ≥3 adverse event incidence	50%
O=C(O)C[C@H](NC(=O)[C@H](CC(=O)O)NC(=O)[C@H](CC(=O)O)NC(=O)[C@H](CC(=O)O)NC(=O)[C@H](CC(=O)O)NC(=O)[C@H](CC(=O)O)NC(=O)[C@H](CC(=O)O)NC(=O)[C@H](CC(=O)O)NC(=O)[C@H](CC(=O)O)NC(=O)[C@H](CC(=O)O)NC(=O)[C@H](CC(=O)O)NC(=O)[C@H](CCCCNC(=O)c1ccc(C(=O)NCCOCCOB2BBBBBB3BBBB3B2)cc1)NC(=O)CN1CCN(CC(=O)O)CCN(CC(=O)O)CCN(CC(=O)O)CC1)C(=O)O [gallium-67 labelled]		gamma counting	ddY mouse, male, 6 weeks old, muscle	intravenous, 37 kBq, 10 min		tissue uptake	1.57 %ID/g
Cc1cn([C@H]2O[C@@H](CO[P@@](=O)(N[C@@H](C)C(=O)OC(C)C)Oc3ccccc3)[C@H](O)[C@H]2F)c(=O)[nH]c1=O		measured: blood CPK increased	human	50 mg		patients with TEAE	0%
COc1cc2c(cc1OC)CN(CCc1ccc(NC(=O)c3cccc4c(=O)c5cccc(OC)c5[nH]c34)cc1)CC2			CD-1 mouse, male, plasma	intraperitoneal, 1 mg/kg		Tmax	1 h
O=C1Nc2cc3[nH]nc(-c4ccncc4)c3cc2CN1Cc1ccccc1		measured: blurred vision	patients with advanced solid tumours	intravenous, dose not given, both schedules pooled		patients with TEAE	32%
C[C@@H](O)[C@@H](CO)NC(=O)[C@@H](CCCNC(=N)N)NC(=O)[C@@H]1CCCN1C(=O)[C@@H]1CSSC[C@H](NC(=O)[C@H](Cc2ccccc2)NC(=O)CN2CCN(CC(=O)O)CCN(CC(=O)O)CCN(CC(=O)O)CC2)C(=O)N[C@@H](Cc2ccc(O)cc2)C(=O)N[C@@H](Cc2ccccc2)C(=O)N[C@@H](CCC(N)=O)C(=O)N[C@@H](CC(N)=O)C(=O)N1 [gallium-68 labelled]			Wistar rat, adrenals	intravenous, 8 MBq, 30 min, group mean		tissue uptake	0.45 %ID/g
CCCN(CCC)[C@H]1CCc2c(F)ccc(O)c2C1	Plasmodium falciparum		HB3			IC50	1 µM
CC[C@H](C)[C@@H]1NC(=O)[C@@H]2CCCN2C(=O)[C@H](CC(C)C)NC(=O)[C@H](CC(C)C)NC(=O)CNC(=O)[C@@H](NC(=O)[C@@H](NC(=O)[C@H](CC(=O)O)NC(=O)CNC(=O)[C@@H](NC(=O)[C@H](C)NC(=O)CNC(=O)[C@H](CCCCN)NC(=O)[C@H](CC(C)C)NC(=O)[C@H](CC(C)C)NC(=O)[C@H](CCCCN)NC(=O)CNC(=O)[C@@H](NC(=O)[C@@H](N)CC(C)C)C(C)C)C(C)C)C(C)C)CSSC[C@@H](C(=O)O)NC1=O		RNA-seq, measured: Rhd mRNA	mouse traumatic brain injury, frontal cortex and hippocampus	dose not given	relative to: TBI plus compound vs TBI	log2 fold change	-2.6
CC[C@H](C)[C@H](NC(=O)[C@H](Cc1ccccc1)NC(=O)[C@H](CCC(=O)O)NC(=O)[C@H](CCCNC(=N)N)NC(=O)[C@H](C)NC(=O)[C@H](C)NC(=O)[C@H](CCC(N)=O)NC(=O)[C@H](CCC(=O)O)NC(=O)[C@H](CCC(=O)O)NC(=O)[C@H](CC(C)C)NC(=O)[C@H](Cc1ccc(O)cc1)NC(=O)[C@H](CO)NC(=O)[C@H](CO)NC(=O)[C@@H](NC(=O)[C@H](CC(=O)O)NC(=O)[C@H](CO)NC(=O)[C@@H](NC(=O)[C@H](Cc1ccccc1)NC(=O)[C@@H](NC(=O)CNC(=O)[C@H](CCC(=O)O)NC(=O)[C@H](C)NC(=O)CCc1c[nH]cn1)[C@@H](C)O)[C@@H](C)O)C(C)C)C(=O)N[C@@H](C)C(=O)N[C@@H](Cc1c[nH]c2ccccc12)C(=O)N[C@@H](CC(C)C)C(=O)N[C@H](C(=O)N[C@@H](CCCNC(=N)N)C(=O)NCC(=O)N[C@@H](CCCNC(=N)N)C(=O)N[C@@H](CCCCNC(=O)COCCOCCNC(=O)COCCOCCNC(=O)CC[C@H](NC(=O)CCCCCCCCCCCCCCCCC(=O)O)C(=O)O)C(=O)NCC(=O)NCC(=O)N[C@@H](CO)C(=O)N[C@@H](CCCCNc1c(NCCCCCN(O)C(=O)CCC(=O)NCCCCCN(O)C(=O)CCC(=O)NCCCCCN(O)C(C)=O)c(=O)c1=O)C(=O)O)C(C)C [zirconium-89 labelled]		gamma counting	rat, stomach-duodenum	intravenous, 3 nmol/kg, 168 h		tissue uptake	0.41 %ID/g
Cc1ccc(-c2ccnc(Nc3ccc(N4CCN(C)CC4)c(C(F)(F)F)c3)n2)cc1			zebrafish embryos	25 µM, 5 d		toxicity	0%

SMILES	target or system	test	system	setting	how to read	endpoint	result
NCCCC[C@@H]1NC(=O)[C@@H](Cc2c[nH]c3ccccc23)NC(=O)[C@H](c2ccccc2)NC(=O)[C@@H]2C[C@@H](OC(=O)NCCN)CN2C(=O)[C@H](Cc2ccccc2)NC(=O)[C@H](Cc2ccc(OCc3ccccc3)cc2)NC1=O			healthy volunteers	subcutaneous, 600 µg twice daily, day 5, 1.50 h		QTcI change from baseline	8.5 ms
C1=Cc2cccc3cccc1c23			developing zebrafish, liver			hepatic clearance	183 mL/min/kg
CC[C@H](C)CCCCC(=O)N[C@@H](CCN)C(=O)N[C@H](C(=O)N[C@@H](CCN)C(=O)N[C@H]1CCNC(=O)[C@H]([C@@H](C)O)NC(=O)[C@H](CCN)NC(=O)[C@H](CCN)NC(=O)[C@H](CC(C)C)NC(=O)[C@@H](CC(C)C)NC(=O)[C@H](CCN)NC1=O)[C@@H](C)O		LC-MS/MS	Transwell insert membrane	time not given, methanol elution		total recovery	~90%
O.O.O.O.O.O.[Cl-].[Cl-].[Co+2]			Crl:CD(SD) rat male, blood	oral, 2.48 mg Co/kg/day, 90 days	relative to: red blood cells	reticulocytes	10.8%
CCN(CCO)CCCC(C)Nc1ccnc2cc(Cl)ccc12 (stereo not drawn)			newly diagnosed glioblastoma patients	oral, 800 mg/dose, grade 2, together with: radiotherapy and temozolomide		nausea patients	33%
COC(=O)C1=CCCN(C)C1			nude mice	intraperitoneal, up to 50 mg/kg/day, 4 weeks	relative to: vehicle	complete blood count	no effect
CC(C)(C)c1cc(-n2nc3ccccc3n2)c(O)c(C(C)(C)C)c1		exposure assessment	human, age 2-3 years	spray sunscreen		mean daily dermal uptake	5.93 ng/kg body weight/day
CC(=O)N[C@@H](CC(N)=O)C(=O)N[C@@H](CC(N)=O)C(=O)N[C@@H](CC(C)C)C(=O)N[C@H]1CSSC[C@@H](C(=O)N[C@H](C(N)=O)[C@@H](C)O)NC(=O)[C@H](CCCNC(=N)N)NC(=O)[C@H](Cc2c[nH]cn2)NC(=O)[C@H](Cc2cccc3ccccc23)NC(=O)CNC(=O)[C@H](Cc2c[nH]c3ccccc23)NC(=O)[C@H](CC(=O)O)NC(=O)[C@H](CCC(N)=O)NC(=O)[C@H](Cc2c[nH]c3ccccc23)NC(=O)[C@H](C(C)C)NC1=O		isocratic RP-HPLC	C18 column	pH 7.4, 25 °C, elution method 2	higher = more lipophilic	log retention factor	0.32
COc1cc2c(Oc3ccc4[nH]c(C)cc4c3F)ccnc2cc1OCC1(N)CC1			paediatric refractory sarcoma patients	8 mg		grade 1-2 T-wave abnormality	0%
CC(=O)c1c(C)c2cnc(Nc3ccc(C4CCN(CCS(C)(=O)=O)CC4)cn3)nc2n(C2CCCC2)c1=O			human patients, plasma	oral, 100 mg twice daily, day 21 multiple doses		clearance	1480 mL/min
CC(C)[C@H](O)C(=O)N[C@H]1Cc2ccc3c(c2)[C@]2(C4=C(c5nc(CO)co5)N=C(O4)[C@H](C(C)(C)C)NC1=O)c1cc(F)ccc1N[C@@H]2O3			NSG mice, brain	intravenous, 10 mg/kg, single dose at MTD, together with: paclitaxel 40 mg/kg		terminal half-life	17.4 h
O=C(Nc1ccccc1)C1CCN(C(=O)Oc2cccnc2)CC1		adverse event reporting	healthy women	oral, 20 mg		subjects with Haematoma adverse event	7.1%
COc1cc(Nc2ncc(F)c(Nc3ccc4c(n3)NC(=O)C(C)(C)O4)n2)cc(OC)c1OC	Neuromedin-B receptor (NMBR, Homo sapiens, UniProt P28336)					IC50	> 10 µM
CC(=O)c1c(C)c2cnc(Nc3ccc(N4CCNCC4)cn3)nc2n(C2CCCC2)c1=O			C57BL/6 mouse pups	intraperitoneal, dosed postnatal days P10 to P14	weight gain reduced below controls	MTD	10 mg/kg
CN[C@H]1CC[C@@H](c2ccc(Cl)c(Cl)c2)c2ccccc21			CD-1 mouse, male, lung	intraperitoneal, 3 mg/kg		elimination rate constant	4.5e-05 s⁻¹
Clc1cc(Cl)c(-c2cccc(Cl)c2Cl)cc1Cl			polyethylene-water partitioning	PCB compilation	relative to: maximum over minimum K	literature range factor	1
CO[C@H]1C[C@@H]2CC[C@@H](C)[C@@](O)(O2)C(=O)C(=O)N2CCCC[C@H]2C(=O)O[C@H]([C@H](C)C[C@@H]2CC[C@@H](OC(=O)NCCOCCOCCOCCOCCOCCOCCOCCOCCC(=O)N3CCc4cc(Cn5nc(-c6ccc7oc(N)nc7c6)c6c(N)ncnc65)ccc4C3)[C@H](OC)C2)C[C@@H](O)[C@H](C)/C=C(\C)[C@@H](O)[C@@H](OC)C(=O)[C@H](C)C[C@H](C)/C=C/C=C/C=C/1C		phase 1 dose escalation	advanced solid tumour patients	intravenous, 12 mg weekly, any grade		deaths due to TEAEs	0%
Clc1ccc(-c2cc(Cl)c(Cl)c(Cl)c2Cl)cc1Cl			fresh water	20 °C, S30-2 sampler, 30 µm		log K(PDMS-water)	6.38 ± 0.06
CN1CC[C@@H](c2c(O)cc(O)c3c(=O)cc(-c4ccc(C(F)(F)F)cc4Cl)oc23)[C@@H]1CO		measured: Epistaxis	relapsed or refractory haematological malignancies	oral, dose not given, grade 3 to 4, all arms		patients with adverse event	5%

Excerpt of the above:
SMILES	target or system	test	system	setting	how to read	endpoint	result
CN[C@H]1CC[C@@H](c2ccc(Cl)c(Cl)c2)c2ccccc21			CD-1 mouse, male, lung	intraperitoneal, 3 mg/kg		elimination rate constant	4.5e-05 s⁻¹
Cc1ccc(-c2ccnc(Nc3ccc(N4CCN(C)CC4)c(C(F)(F)F)c3)n2)cc1			zebrafish embryos	25 µM, 5 d		toxicity	0%
O=S(=O)(Nc1ccccc1)c1ccc(NC(=S)Nc2ccccc2)cc1			mouse, male, blood	oral, 5 mg/kg daily, 14 days		mean platelet volume	4.68 fL
Clc1cc(Cl)c(-c2cccc(Cl)c2Cl)cc1Cl			polyethylene-water partitioning	PCB compilation	relative to: maximum over minimum K	literature range factor	1
CN1CC[C@@H](c2c(O)cc(O)c3c(=O)cc(-c4ccc(C(F)(F)F)cc4Cl)oc23)[C@@H]1CO		measured: Epistaxis	relapsed or refractory haematological malignancies	oral, dose not given, grade 3 to 4, all arms		patients with adverse event	5%
CCc1ccc(CC/C=C/c2ccc3c(c2)C(=O)CC3)cc1			Sprague-Dawley rat, female	oral, 450 mg/kg/day, 14 days		Mononuclear percentage	2.73%
